Published values pooled from the literature.
Parts stem from different laboratories: compare values within a part only. Positions count from the first letter of the parent shown.

Block 1 — technique: RNA Bind-n-Seq; molecule type: RNA; medium: in vitro; tested at: 100 nM; relative to: input RNA pool; reading: higher = stronger binding; endpoint: bound/input enrichment
Target: RING finger protein unkempt homolog, zinc fingers 1-6, SBP tag (UNK, Homo sapiens, UniProt Q9C0B0, residues 30-357)
UniProt Q9C0B0, sequence (30-357, looked up): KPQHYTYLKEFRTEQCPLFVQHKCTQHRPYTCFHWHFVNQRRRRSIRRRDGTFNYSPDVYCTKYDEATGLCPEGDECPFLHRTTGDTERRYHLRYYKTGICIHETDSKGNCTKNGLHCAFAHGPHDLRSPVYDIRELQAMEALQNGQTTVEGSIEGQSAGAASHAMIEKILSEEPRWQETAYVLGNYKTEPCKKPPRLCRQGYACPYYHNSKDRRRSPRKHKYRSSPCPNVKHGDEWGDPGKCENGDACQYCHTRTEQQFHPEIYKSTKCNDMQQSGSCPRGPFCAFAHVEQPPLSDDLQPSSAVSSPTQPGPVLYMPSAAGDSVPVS
Setting: RNA with constant flanks, vertebrate orthologous sites, ends assumed
All sequences stand within: GGGAGUUCUACAGUCCGACGAUC … CAACAGAGGAUUGAGCAUCA
CUUCUACUUCAACUGGUCUUUUUAAGCCAUAGGAACCUUUUUUUUUUUUUUUUUUACAGUUUUAGUAUUUGAUUUUUACAUGGAAGACUAAACUCAUGCUUAGAGCUAAAUACGGUCUUU: 2.55 ratio
AGUGGAUGCAACAUAGGAACAUCCCAGGUACUGACUGCAGCUUCCGAUGCAAGGUUAGUGUGGGAGCCACAGUCUGUGUGAGGACGAUACAUGUCUUUGAGUAAAUGACAUCUUUAACUU: 0.198 ratio
GCAAUGAAAAGACAGCCCUCCUCCCAGCCCCCACCUCACUAGGAGACACGAACGUUACCGUAGAAGAGCAAUUUAACUCAAUAAAUUUAUCUUUUCAGGAUGAUCCAGACUCCAGUCCCA: 0.75 ratio
GUCAUCUGAUUGGAUGAAGACCAUCCCAAGUUACAACCAAACAAACAGCUCCAUGGACUUUAGAAAUUACAUGAUGAGGGAUGAGAAUCUGGAACCACUGCCCCCAAACUGGGAAAUGGC: 0.931 ratio
CAAGAGAAUAAUCCUGGCUGCUUUUGUGAGGCAAAGUGUCCCUUGGCACGUGGUCGGUAACAGAACCAUCAUGCCUAGGAAGUCAGUCUUUCAGUGUUCCAUUGCUUCUACACAUAAUCC: 0.209 ratio
UUUCUUUUUUUGCACAUGACAGUGUUUGUAUUGAGGACCUUCUAAGGAAGAGGGGUGGUGUAGCAGUGGUGCCUGGGUGCCUGGCCUCCAGUGUCCCACCUCCUUCACCACCCCACUUGG: 0.178 ratio
AGCCCCGCUUUUAGGUGUGAUAUCUAGGCUUUCAUUCCAGUUGUUUUUGUCCUUUCUUGUUUAGAUACUGAUCUUUUAAAUUCUUGCAUUUUAGUAAGAAAGCUAUCUUUUUAUGGAUGU: 0.732 ratio
UAUCUUCAGGAUGAAGCUCUUACAUCAGGUAUCACGAGUCUGGAGAAUAGAUGGGUUGACUAGUUGUAUUUACAAAUUACUCUCUGUGGAUUAUAAUCCUUUGUAUACCAACAUCACAGU: 0.265 ratio
GCUCUUAAUGCACUGUUUUACCAGGCAUUGUCUGAAGUUUGUGUAAUCUAGAAGAUUUUAUAGUUUUAUUUUAAUGAAGUAUGAAUUGAAGCAAAGCUGUUAGGAGUAUGUAGUCUUUUA: 1.25 ratio
CCUCCUGAACUUCUCUUGCUUUCAAGCUGUGGCUGUUUCAGAUACUGGUUUAAUUUUCUUUGCAGUUUUCCCCUGUCCCACCUUUUUCCCCUUCUUUCCAAGGUUUGACUCAUGGAUUGU: 0.98 ratio
AUUCAUUUUUUAAUUUUGGUUUUAUUUUAUACAAUGUGUAGACAGCCCCUGUUCUGCAUUUAGAAGUAUACACAAUAUACAUCUGUUAAUUCUGUAAGUAAUUUUUAUAAUUAUGAUGUA: 0.277 ratio

Block 2 — technique: protein binding microarray; molecule type: double-stranded DNA, one strand shown; medium: in vitro; tested at: not given; relative to: not given; reading: higher = stronger binding; endpoint: E-score
Target: Histone acetyltransferase KAT6A, winged helix 2, GST fusion (KAT6A, Homo sapiens, UniProt Q92794, residues 85-181)
Setting: 8-mer, flanks averaged, mean of 2 arrays, mostly near background
Target sequence (chain): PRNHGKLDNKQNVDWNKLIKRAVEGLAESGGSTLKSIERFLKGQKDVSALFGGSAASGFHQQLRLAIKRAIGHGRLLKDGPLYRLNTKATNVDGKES
AAAGATTA: 0.101
AAGCGGGC: -0.0541
GAAGCGGA: 0.0216
ACCCGTCA: -0.0851
AACTGTAA: -0.00983
CAGGTTGG: 0.138
GCTGTGCA: 0.0443
GGCGAGAA: 0.121
ACTTCCTA: -0.0755
GCTCGACA: -0.0306
CCCGTGAG: 0.0852
AGCAGGAG: 0.0585
ACTACACA: -0.138
AGGTATTC: -0.0531
TAGCCGGA: 0.149
ACATTTTG: 0.025
CCCAGAGA: -0.00097
ACTTAAAA: 0.141
ACCTTGAA: -0.0118
ACCCCAAA: 0.0044
GGACTATA: -0.13
ATGTTAAC: -0.152
CCATTGGG: -0.00103
CGTCTGAG: 0.0235

Block 3 — target: CCNB1, cyclin fold, Cln2 fusion (human); technique: yeast growth competition, sequencing; medium: yeast; setting: weak parent motif; relative to: not given; reading: higher = stronger binding; endpoint: normalised enrichment score
Parent: RBL1 docking peptide (human); GSAKRRLFGEDPP
GSGKRRLFGEDPP [A3G]: -0.0414
GSSKRRLFGEDPP [A3S]: -0.311
GSAKRRLFPEDPP [G9P]: 1.24
GSAKKRLLGEDPP [R5K F8L]: 0.127
GSAKRRLFGMDPP [E10M]: 0.441
GSAKRRLFGEWPP [D11W]: 0.606
GSAKRRLFVEDPP [G9V]: 0.906
RSAKRRLFGEDPP [G1R]: 0.841
GSEKRRLFGEDPP [A3E]: 0.888
GSAARRLFGEDPP [K4A]: 0.926
GSAKRRLFGEDGP [P12G]: 0.68
GSAKWRLFGEDPP [R5W]: -0.159
GSCKRRLFGEDPP [A3C]: 1.35
GSAKCRLFGEDPP [R5C]: 0.41
GSAKRRLFNEDPP [G9N]: 1.92
GSAKRRLHGEDPP [F8H]: 0.439
GSAKRRLWGEDPP [F8W]: -0.298
GSAKRRLFGEDAP [P12A]: 0.691

Block 4 — technique: protein-binding microarray; molecule type: double-stranded DNA, one strand shown; medium: in vitro; tested at: not given; reading: higher = stronger binding; endpoint: E-score
Target: Max-binding protein MNT, bHLH-zipper, MAX partner unstated (MNT, Homo sapiens, UniProt Q99583, residues 220-300)
Setting: k-mer, scored over probes, only values ≥0.25
Target sequence (chain): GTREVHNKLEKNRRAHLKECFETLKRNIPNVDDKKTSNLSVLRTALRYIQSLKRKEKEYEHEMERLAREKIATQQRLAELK
GCCCGCCC: 0.338
AGCGTGTG: 0.357
GCCGCACC: 0.308
CTTCACGC: 0.257
AACACATG: 0.459
CCGACGCG: 0.254
GCGTGTAA: 0.364
ACGTGCAT: 0.454
ACGTGCGA: 0.413
CGGGCACG: 0.288
CAGGTGGC: 0.327
ACGCGCAA: 0.293
CCCGTGGC: 0.269
ACACGCGG: 0.464
CCACGCGG: 0.49
CACCATGA: 0.252
GCACGCGC: 0.441
ATGCGGCA: 0.348
CCGCCACG: 0.336
GCACGCAC: 0.329

Block 5 — technique: RNA Bind-n-Seq; molecule type: RNA; medium: in vitro; tested at: 365 nM; relative to: no-protein control; reading: higher = stronger binding; endpoint: RBNS enrichment (R)
Target: RNA binding protein fox-1 homolog 2, RRM domain, GST-SBP tag (RBFOX2, Homo sapiens, UniProt O43251-10, residues 100-194)
Setting: natural RNA segment, single round, ends assumed
All sequences stand within: GGGAGUUCUACAGUCCGACGAUC … UGGAAUUCUCGGGUGCCAA
Target sequence (chain): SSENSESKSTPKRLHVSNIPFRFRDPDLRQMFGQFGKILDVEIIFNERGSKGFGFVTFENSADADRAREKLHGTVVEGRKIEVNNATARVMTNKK
UUCUCGUUUCUAUGCAGCCCCAUAGUCCAAGGACACCCAGUCCACAUCUACCAUAUAGCAAGUUUAGUAAGGGAAGGCAGCAUACGUCCCAGGGACAGUGGGUUUGGAUC: 1.82
UUUGAUAUGUAAGCUUGACCUAAAGUCAAAGGACCUGUGUAGCAUUUCAGAUUGAGCACUUCACUAUCAAAAAUACUAACAUCACAUGGCUUGAAGAGUAACCAUCAGAG: 1.11
UCGUCCAACCCUAAGCCUCUUCCUUAAGGUUCUUGUGACAGAUCCAGUUCAGGGAGGAGGCACUGAGAUUUGGUUAGGGCCAUCGCGAACCCCACACACCCAUCCUCCCA: 0.272
CCUCAGGAAGCUUGGAACACCUCAGUCACAAGCCUGUCAGUUUCUUCCUCUGGGAUGGGAGUCCCGCAGCAUCGAGACUGGAAACGUACACAUUUCCCCCAGGGACCCUG: 0.392
GGUCCAGUCACAUUACUUUGCACUUCUUCUUCUUUUUUUUCUUUUUGUACAAAAUUUUAAAGACUUAAUUUAUUGCCAAAAUUCUGUGUAAAGUGACAGUGUAUCUAACA: 0.624
CAGUGUUGCCCAGAUGCAUUUUACAUCACUGUAAAGAGAUUACUUUUGUGGUUACUACCUGGCUUGGCUGGCCUUGCGGUUCACCAGAUUAAUUUACAAACUCCCCCACU: 0.315
UACACACACACACAUUUACACACGCAGGACUCUGGAGCCAGAGUAGAGGCUGUGGCCCAGGCACUACCUGCUGGCUCCCACCUAUGGUUUGGGGGCCAUACCUGUUCCAG: 0.764
UACUGUGCCCUUUCUUCCCAUCACCUUGCUCUCUCUGGCUCUGUCUCUUCUUGCUGUCUCUCUCCUUUUAGCAGUCACUUCUGAGAAGUAAAGAACCUGACUUAGUGCUG: 0.442
CUUGAGAAGUGUAGGUCUACUGAAGAACCAUUACAAAUGGACGUCAGAGGUGUGCUGUACUUUUGAAGGUAUUUUAUUGUAUUAGGUUUAAUGAAGCUAAAAGUAGGGAA: 0.513
UGCCUCCAGUAAAGUGCCCUGGGAAGGGAGCUGGGCAGUGUUUGUGGACGAGAGACUGUAACGAUGGCUAAUAAAAGCUGCGGGUCUAGGUUUUUUUUUUUUUGUUUUGU: 1.44
ACUCUCCCAGAAGAAAACUUGUUUGCCUUCAACCUUGUUUUCCAGUUCUGCAGCGUCAUGGAGGAUGGGCGGGCGCCAUGCAUGUGCAGGCUCACACUCCCAGCCUCCGC: 1.34
CACAGACCUUCGAUGGCGUUUGAGUCCAACACCUUCCAAGAACAACAAAACCAUAUCAGUGUACUGUAGCCCCUUAAUUUAAGCUUUCUAGAAAGCUUUGGAAGUUUUUG: 0.477

Block 6 — technique: protein-binding microarray; molecule type: double-stranded DNA, one strand shown; medium: in vitro; tested at: 2540 nM top; setting: 60-bp whole probe; together with: salmon DNA 0.4 mg/ml; relative to: random background probes; reading: higher = stronger binding; endpoint: fitted relative affinity; all sequences stand within: GCCTAGCAC … GTCTTGATTCGCTTGACGCTGCTG
Target: Interferon regulatory factor 3, full length, phosphomimetic (IRF3, Homo sapiens, UniProt Q14653, residues 1-427, S386D/S396D/S398D/S402D/T404D/S405D)
Target sequence (chain): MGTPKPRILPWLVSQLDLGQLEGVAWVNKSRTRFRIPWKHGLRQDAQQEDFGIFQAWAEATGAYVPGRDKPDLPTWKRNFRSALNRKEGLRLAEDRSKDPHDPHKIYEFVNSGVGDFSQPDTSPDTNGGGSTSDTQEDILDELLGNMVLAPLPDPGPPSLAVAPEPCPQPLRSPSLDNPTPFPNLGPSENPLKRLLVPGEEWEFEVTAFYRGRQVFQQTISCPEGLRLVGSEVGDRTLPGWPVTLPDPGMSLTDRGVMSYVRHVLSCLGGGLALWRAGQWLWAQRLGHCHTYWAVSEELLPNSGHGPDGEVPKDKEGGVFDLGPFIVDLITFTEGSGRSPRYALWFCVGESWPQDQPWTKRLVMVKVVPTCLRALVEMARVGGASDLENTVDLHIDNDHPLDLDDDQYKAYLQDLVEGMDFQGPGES
ATGGAAATGCACCCCACGCTGTGCTAG: -0.157 z-score
GACGGTTTGGACACTGGGGACGTGCTA: -0.123 z-score
TTAGATATCAATCTCGATTAGTGCTAG: 0.808 z-score
GTCTTTGCAAAAGCTCCACCGTGCTAG: -0.199 z-score
TCAACTCTGTTTTCGCTTACTGTGCTA: 1.37 z-score
GACGGGATCGGGTTTCGGGACGTGCTA: 1.42 z-score
GACGGACTGGGACTGCGGACGTGCTAG: -0.965 z-score
GACGATATCAGTCCCGAGACGTGCTAG: 0.223 z-score
GACGGACTGGGGTATTGGGACGTGCTA: -0.993 z-score
GACGGTCTTCTACTGCTGACGTGCTAG: -0.114 z-score
TTAGGTATCGACTTTCGGTTAGTGCTA: 2.1 z-score
TTAGGACTAGGGACTGGGTTAGTGCTA: -1.04 z-score
GCTGACACTAACACAGTGGTGTGCTAG: -0.458 z-score
GACGATATCAGTATCCAGACGTGCTAG: 2.01 z-score
TGGCAGCATTCTTGGAAATCGTGCTAG: -0.768 z-score
GACGGCTTCGGTATCGGGACGTGCTAG: 0.91 z-score
TTAGTTTTCCTTTCCCTTTAGTGCTAG: 9.44 z-score
GACGGTTTCCACACTGGGGACGTGCTA: 4.69 z-score
TCATTTATGTCCTGTCTAACTGTGCTA: 1.4 z-score
TTAGGACTGGGGCATCGGTTAGTGCTA: -0.962 z-score
TTAGGGATCCTTTTCCTTTAGTGCTAG: 6.65 z-score

For quick reference, copied from above (block 3):
GSGKRRLFGEDPP [A3G]: -0.0414
GSAKRRLFVEDPP [G9V]: 0.906
GSAKRRLHGEDPP [F8H]: 0.439
GSAKWRLFGEDPP [R5W]: -0.159
GSCKRRLFGEDPP [A3C]: 1.35
